Results gathered from unrelated publications.
Each numbered part is a random draw from the data of one study; scales do not carry over between parts.

Set 1 — technique: universal PBM; form: double-stranded DNA, one strand shown; matrix: in vitro; concentration: 600 nM; direction: higher = stronger binding
Target: Sal-like protein 4, full length isoform A (SALL4, Homo sapiens, UniProt Q9UJQ4, residues 1-1053)
UniProt Q9UJQ4, sequence (whole entry, looked up): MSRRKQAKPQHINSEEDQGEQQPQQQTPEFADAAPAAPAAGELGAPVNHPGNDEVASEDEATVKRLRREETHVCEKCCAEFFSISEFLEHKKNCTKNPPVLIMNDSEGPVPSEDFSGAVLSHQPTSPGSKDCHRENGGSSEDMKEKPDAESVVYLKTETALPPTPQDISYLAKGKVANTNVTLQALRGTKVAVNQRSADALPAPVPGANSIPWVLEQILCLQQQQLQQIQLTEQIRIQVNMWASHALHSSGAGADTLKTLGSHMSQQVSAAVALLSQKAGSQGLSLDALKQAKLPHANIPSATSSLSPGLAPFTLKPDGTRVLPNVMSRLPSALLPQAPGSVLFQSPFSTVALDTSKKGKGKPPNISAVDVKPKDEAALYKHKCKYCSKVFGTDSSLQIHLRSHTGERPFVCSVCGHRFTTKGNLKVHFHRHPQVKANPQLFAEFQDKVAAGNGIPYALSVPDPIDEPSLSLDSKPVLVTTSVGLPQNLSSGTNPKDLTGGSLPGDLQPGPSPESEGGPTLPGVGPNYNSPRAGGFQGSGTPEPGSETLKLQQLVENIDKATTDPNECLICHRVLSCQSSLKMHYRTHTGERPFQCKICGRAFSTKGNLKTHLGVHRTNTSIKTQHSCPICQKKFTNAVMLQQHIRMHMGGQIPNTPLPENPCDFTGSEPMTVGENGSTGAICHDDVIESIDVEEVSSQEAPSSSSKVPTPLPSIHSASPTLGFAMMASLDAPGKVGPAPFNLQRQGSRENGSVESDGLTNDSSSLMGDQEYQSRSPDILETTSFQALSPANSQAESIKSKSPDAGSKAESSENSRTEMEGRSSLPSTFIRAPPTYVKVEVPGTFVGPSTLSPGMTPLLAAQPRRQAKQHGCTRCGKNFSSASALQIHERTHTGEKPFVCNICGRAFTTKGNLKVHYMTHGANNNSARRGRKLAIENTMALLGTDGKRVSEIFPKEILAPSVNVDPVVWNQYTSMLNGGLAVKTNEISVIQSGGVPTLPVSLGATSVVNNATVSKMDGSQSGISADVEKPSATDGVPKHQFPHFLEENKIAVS
Setting: 8-mer, flanks averaged, mean of replicates
Oligonucleotide	E-score
ACCCGAGA	-0.267
ATTGGATA	0.186
CGACAGCA	-0.0965
GACCTAAC	-0.109
CCCTTAGG	-0.26
AGTTCGAT	0.138
AGTGTCCC	-0.246
ACTCCAAG	-0.0338
ACGCAAAG	0.00186
CAAAATAA	0.333

Set 2 — technique: EMSA with sequencing; form: double-stranded DNA, one strand shown; matrix: in vitro; concentration: 10 and 20 nM; baseline: negative control set to 0; direction: higher = stronger binding
Target: Hepatocyte nuclear factor 3-alpha (Foxa1, Mus musculus, UniProt P35582, residues 1-468, full length assumed)
UniProt P35582, sequence (whole entry, looked up): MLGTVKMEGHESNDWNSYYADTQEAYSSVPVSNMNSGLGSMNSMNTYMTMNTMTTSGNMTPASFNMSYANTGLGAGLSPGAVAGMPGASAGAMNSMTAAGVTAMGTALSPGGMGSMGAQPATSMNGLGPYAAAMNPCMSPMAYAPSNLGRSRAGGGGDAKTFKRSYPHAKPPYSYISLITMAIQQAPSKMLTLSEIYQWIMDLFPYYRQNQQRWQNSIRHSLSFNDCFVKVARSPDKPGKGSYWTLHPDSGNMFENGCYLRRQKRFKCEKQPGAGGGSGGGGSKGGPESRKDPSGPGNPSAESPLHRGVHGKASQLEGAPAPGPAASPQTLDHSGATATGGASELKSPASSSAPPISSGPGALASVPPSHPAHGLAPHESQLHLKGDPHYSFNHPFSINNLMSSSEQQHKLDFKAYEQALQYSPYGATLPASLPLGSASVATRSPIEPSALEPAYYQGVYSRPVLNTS
Setting: whole designed probe, mean of two concentrations, ends assumed
Constant ends, left off below: GTGAGCGGTGCCCATTGATGGGGAAC … TTTCACTGGGATCGTGGGGAC
Oligonucleotide	normalised bound fraction
TTTTAACTAGTATGTTTTAAACTTTGGTATTGTATTTCCCACTAAGAGCCCTTCTTTTTTCAAAATAATATTTATTCTACCAGATGAACTATGTAATCTTAAAGCAATATGGACAAGCATTTATTCTTTTGTTTTTAATTAACTTGCCCACATGATTTCAAATTTCATTAGAATTTATATTATAGTATTTCAA	0.126 ratio
ATAAAGCTATTTCTCTGCTATTTGAAAATACAATAGAAGAAACTGAGCCTTTTAGACATTCGTCAGCCTCTTCTAATAAACCTTTGTACTATGTAATCTTCAGGAAATTCAAAGCTCGGAGACTTTTCCTATTCTTTTCCTCTAGACCTGACAATCAAACACTTCCCCGCTTCAACACATCTCATTTTCTAGA	0.00636 ratio
TTTCTGCTGGAAAATTCTATCTGTCAATAGAGTTCTTAAAAGGATTTGTATTAAGCCTTCCACAGATACTCTGATATTAAAATCAGGTCTGAGTAATCTGGTACATTCTGTGTAGTTAAAATTAAATACTGCTATAAATATGCCCAGTGGGGTAATCCAATTTACTAGTCACTTCAGAGCTGATATGAAGGTC	0.0632 ratio
TTTTGTCCAATTTATTAACTCCTGGAAAACGGCACTCAGTCTATTGCAAGAAAAGCCTTTGCTGATGAGCATGACCAGAATTTGCATACTTTCTAGATTACATAACACTTATTCTTTACTAGTGGGCAAAATTGCTTATAAGCTGTTAAGCAGGGTATTGGAAGGCCTCTATGGAACTTCACTTATCAGTGAT	-0.0386 ratio
GGTTAAAAAAACATACAAGGATCCAATCCCCCCGTTGGAGACACACAGAGCAACAGTAGGAAGGATACATTTCCAGCAAGCTGTGACTCTTTAAGTAATTTCGTAGGAGGAAGCAAGTGCAGATTAAAGTACAGTAACTGTGAGGCATATGACTGCAGTCATGTTTATGAGTGACTTATAAAGAGAGATTTCA	0.00112 ratio

Set 3 — technique: protein binding microarray; form: double-stranded DNA, one strand shown; matrix: in vitro; concentration: not given; baseline: not given; direction: higher = stronger binding
Target: Histone acetyltransferase KAT6A, winged helix 2, GST fusion (KAT6A, Homo sapiens, UniProt Q92794, residues 85-181)
Setting: 8-mer, flanks averaged, mean of 2 arrays, mostly near background
Target sequence (chain): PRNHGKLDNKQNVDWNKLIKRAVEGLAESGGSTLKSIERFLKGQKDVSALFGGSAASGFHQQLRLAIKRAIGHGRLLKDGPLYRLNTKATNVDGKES
Oligonucleotide	E-score
ACCTATAT	0.00609
ACTCACAC	0.0529
GTCCGCGA	0.0546
CCCCAAAG	-0.0264
CTCTTGCC	0.0229
AATAACCT	-0.166

Other studies, line by line
Substance	target	test	test system	setting	scale	endpoint	value
PhoQ, residues 284 288 289 292 302 303 SSLVEF	PhoP, residues 12 14 15 18 19 NMSFL (Escherichia coli, UniProt P23836)	Sort-seq, measured: YFP reporter	E. coli	PhoQ-PhoP variant library, added: 10 µM Mg2+	baseline: high Mg2+ state, higher = stronger signaling	fold induction	13

Some of these lines once more (set 1):
Oligonucleotide	E-score
AGTGTCCC	-0.246
ACTCCAAG	-0.0338
